Assay results from different studies.
Numbered parts are unrelated; each lists some results of a single study. Positions count from the first letter of the parent shown.

Series 1
Target: RNA binding protein fox-1 homolog 2, RRM domain, GST-SBP tag (RBFOX2, Homo sapiens, UniProt O43251-10, residues 100-194)
Technique: RNA Bind-n-Seq
Molecule type: RNA
Sample: in vitro
Concentration: 365 nM
Setting: natural RNA segment, single round, ends assumed
Baseline: no-protein control
Direction: higher = stronger binding
Residues (chain): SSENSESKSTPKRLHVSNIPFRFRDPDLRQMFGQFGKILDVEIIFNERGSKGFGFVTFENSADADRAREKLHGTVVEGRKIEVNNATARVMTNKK
`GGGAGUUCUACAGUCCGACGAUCCCAUACCUUUAGGCUUGGUAAGGGAGAAAGCCCGAGCUGUACUGCAGUCUGAUUGCUGUGUUACAAGGACCCAGCUGAGCUGAUGUCAUUCGCACUGCCUCUGUUGCUUCUGGAAUUCUCGGGUGCCAA` — result for “RBNS enrichment (R)”: 0.339.
For `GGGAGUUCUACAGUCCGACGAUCCCUCCCCACCCGGGGAAGCCAUCACAGCUCAUCUGCCCGCGGCUGCGUGAGGACAGCAGGGGUUUUUCUUCAGAGUCUAUUUUUUCAGCGACAAGGACCCAGGUCUUCCUUGGAAUUCUCGGGUGCCAA`, “RBNS enrichment (R)” read 0.753.
`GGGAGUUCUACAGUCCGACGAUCAGCCAUCUGGCCUACCCUCUCAGGAAAUGGGUUGUCCUGUAGAGUUCUCUACCCUUUUAAAGGCAAAAGUAUUGGGAUGCAAUACUAUCUUAAUGUCCCUAUCUGUGGUGUGGAAUUCUCGGGUGCCAA`: “RBNS enrichment (R)” 0.31.
For `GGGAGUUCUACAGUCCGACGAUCAUAAUGUAAUAAGAUUCUUUUCUCUUAAGGUAUCCUUGAAUUACACCAAAGAACCAGAAACUUAAUUUUGGUUAAAUUAUUUAUUUAUUUCAUGCAUUAAUUUUCUUUUUUGGAAUUCUCGGGUGCCAA`, “RBNS enrichment (R)” read 1.39.
`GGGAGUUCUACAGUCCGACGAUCCGACUGCUGACCCCCUGGGCCAGGUGAGGUUGGGGCCUGUGGGCCGCCAGUCCAUACGGUGCUGUCACUGCCCAUCUUCGGUGACACCCUGGGGUGAGGUGCUCAGCACCUGGAAUUCUCGGGUGCCAA`: “RBNS enrichment (R)” 0.192.
For `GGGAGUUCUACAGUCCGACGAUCGAAGAGCUUUGCUGGGCCCUGGCUUCCCUGCCCUCGCCUUCACCUCUGUCAGCAGGUGGCCUUGCCUGGGGAGCCCCAUGUGUGGCCCACCCCACCAGGCCAUCCCCAUAUGGAAUUCUCGGGUGCCAA`, “RBNS enrichment (R)” read 0.221.
`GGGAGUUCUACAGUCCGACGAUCUUCAGGCAUUUCUAUUUCACAAUCGAAUUGAACACAUUGGCCAAAUAAAGUUGAAAUUUUACCACCUUCCUUGCCUCGGGUUUAUGAUCUCACCAAGCCCGGAGAGCUGGUGGAAUUCUCGGGUGCCAA` — result for “RBNS enrichment (R)”: 0.605.
For `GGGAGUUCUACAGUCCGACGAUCCCUAUUGAACAUUUGAUCAGAAUGAACUUGCCAAUCAAAACAAAAACAGGACAAUCAAUUUAAGACAACAGAAAUAGAGAUUGUUAAAUAAAACCAUUAGUAUUUUACUUUGGAAUUCUCGGGUGCCAA`, “RBNS enrichment (R)” read 0.494.

Series 2
Target: CCNB2, cyclin fold, Cln2 fusion (human)
Technique: yeast growth competition, sequencing
Sample: yeast
Setting: weak parent motif
Baseline: not given
Direction: higher = stronger binding
Starting sequence: SAMHD1 docking peptide (human); ASKSRVQLFKDDP; partner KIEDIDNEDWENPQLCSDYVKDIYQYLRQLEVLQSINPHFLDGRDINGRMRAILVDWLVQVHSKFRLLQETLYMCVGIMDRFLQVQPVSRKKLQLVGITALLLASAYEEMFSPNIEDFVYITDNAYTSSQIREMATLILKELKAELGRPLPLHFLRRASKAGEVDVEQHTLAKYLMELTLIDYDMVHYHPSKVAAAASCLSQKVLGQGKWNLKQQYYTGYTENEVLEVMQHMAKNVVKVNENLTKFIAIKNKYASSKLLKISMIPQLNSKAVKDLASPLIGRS
Under “normalised enrichment score”, `D11S` is recorded as 0.358.
For `S4H`, “normalised enrichment score” read 0.202.
For `D12R`, “normalised enrichment score” read 0.177.
Under “normalised enrichment score”, `F9H` is recorded as 0.931.
For `K3M`, “normalised enrichment score” read 0.0523.
`K3E`: “normalised enrichment score” -0.297.
For `D12S`, “normalised enrichment score” read 0.349.
For `D11E`, “normalised enrichment score” read 0.267.
`K3Y`: “normalised enrichment score” 0.196.
`F9K`: “normalised enrichment score” 0.209.
Under “normalised enrichment score”, `L8N` is recorded as 0.258.
For `R5Y`, “normalised enrichment score” read -0.0192.
`S4M` — result for “normalised enrichment score”: 0.999.
Under “normalised enrichment score”, `K3F` is recorded as 0.0717.
`V6P`: “normalised enrichment score” -0.419.
`D11Q` — result for “normalised enrichment score”: -0.14.
For `S4L`, “normalised enrichment score” read 1.5.

Series 3
Target: ABI1, truncated, D143A, DHFR fusion (Arabidopsis thaliana)
Technique: DHFR PCA, deep sequencing
Sample: yeast
Setting: methotrexate growth selection, single substitutions
With: (+)-ABA 0.032 µM
Baseline: wild-type fitted maximum
Direction: higher = stronger binding
Starting sequence: PYL1, truncated, DHFR fusion (Arabidopsis thaliana); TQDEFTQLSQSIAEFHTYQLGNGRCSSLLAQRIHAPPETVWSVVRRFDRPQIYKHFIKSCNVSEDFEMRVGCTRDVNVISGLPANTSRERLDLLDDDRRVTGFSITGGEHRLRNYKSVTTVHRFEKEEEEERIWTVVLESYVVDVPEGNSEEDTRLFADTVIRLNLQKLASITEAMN; partner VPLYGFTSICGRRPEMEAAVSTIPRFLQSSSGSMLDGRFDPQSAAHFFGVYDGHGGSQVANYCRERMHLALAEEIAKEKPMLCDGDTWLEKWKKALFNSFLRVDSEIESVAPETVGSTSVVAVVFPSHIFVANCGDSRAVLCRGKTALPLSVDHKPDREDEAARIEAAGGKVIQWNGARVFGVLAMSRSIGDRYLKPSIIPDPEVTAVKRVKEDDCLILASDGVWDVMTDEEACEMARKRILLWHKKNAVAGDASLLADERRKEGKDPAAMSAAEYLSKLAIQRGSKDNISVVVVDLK
For `P50A`, “relative binding score” read -4.11%.
`E89R`: “relative binding score” -0.338%.
`G102N`: “relative binding score” -4.25%.
`S63G` — result for “relative binding score”: 38.1%.
For `W134D`, “relative binding score” read 19.4%.
Under “relative binding score”, `E152F` is recorded as -4.01%.
`G23A` — result for “relative binding score”: 4.52%.
`E38R`: “relative binding score” 1.83%.
`H16R`: “relative binding score” -1.91%.
For `L8C`, “relative binding score” read 4.15%.
`S63Y`: “relative binding score” -15.9%.
`D144T`: “relative binding score” -4.57%.
Under “relative binding score”, `P83F` is recorded as 2.86%.
`H34Y` — result for “relative binding score”: 23.2%.
For `E151F`, “relative binding score” read -1.28%.
Under “relative binding score”, `L166N` is recorded as -0.369%.
Under “relative binding score”, `F157N` is recorded as 2.63%.

Series 4
Target: Ras GTPase-activating protein-binding protein 1, full length (G3BP1, Homo sapiens, UniProt Q13283)
Sequence of UniProt Q13283 (whole entry, looked up): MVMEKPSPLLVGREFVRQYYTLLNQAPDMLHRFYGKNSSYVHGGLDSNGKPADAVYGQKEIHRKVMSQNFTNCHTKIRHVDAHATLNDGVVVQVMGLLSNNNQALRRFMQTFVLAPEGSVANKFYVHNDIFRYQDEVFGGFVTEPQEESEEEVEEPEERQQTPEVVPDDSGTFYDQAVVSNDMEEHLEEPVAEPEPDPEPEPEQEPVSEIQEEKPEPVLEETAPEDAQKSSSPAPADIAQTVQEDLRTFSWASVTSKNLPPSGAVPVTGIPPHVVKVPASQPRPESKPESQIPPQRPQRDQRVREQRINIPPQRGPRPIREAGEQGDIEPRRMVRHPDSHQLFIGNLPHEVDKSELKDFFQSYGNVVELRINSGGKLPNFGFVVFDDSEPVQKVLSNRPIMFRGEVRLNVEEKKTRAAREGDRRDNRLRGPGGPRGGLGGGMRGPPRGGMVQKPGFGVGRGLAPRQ
Technique: RNA Bind-n-Seq
Molecule type: RNA
Sample: in vitro
Concentration: 200 nM
Setting: whole 134-nt RNA, ends assumed
With: 150 mM KCl
Baseline: input library
Direction: higher = stronger binding
`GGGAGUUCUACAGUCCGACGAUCUCAAGUCCUGUGCUACACAUCGUAUGUACCGAAUCGGGGAGGGGUGGGGAGGGGAAAGUAUUAUGUUACGCCGUUCGGAUCUGCACUUCCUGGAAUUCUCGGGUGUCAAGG` has a log2 enrichment of 1.44.
`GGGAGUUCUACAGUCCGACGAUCUGGCCCUGGUGGCAUGCGGGGAGGAAGAGGUGGCCUCAGGGAUCGUGGUGGUCCCGGUGGAAUGUUCAGAGGUGGCCGUGGUGGAGACAGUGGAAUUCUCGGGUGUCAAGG` gave a log2 enrichment of -0.109.
For `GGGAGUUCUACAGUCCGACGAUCUGGGAGGUGGAUUUUGUUUAUUUUUUUAGCUCAUUUCCAGGGGUGGGAGUUUUUUUUUAAUAUGUGUCAUGAAUAAAGUUGUUUUUGAAAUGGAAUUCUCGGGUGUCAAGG`, the log2 enrichment was 0.514.
With `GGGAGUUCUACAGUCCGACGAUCAGUCCUGUGCUACACAUCGUAUGUACCGAAUCGGAAAAAAAGGUUUUUGGUUUUUGGAAAGUAUUAUGUUACGCCGUUCGGAUCUGCACUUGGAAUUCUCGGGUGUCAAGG` the log2 enrichment was -1.74.
`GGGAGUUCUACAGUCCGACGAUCAGUCCUGUGCUACACAUCGUAUGUACCGAAUCGGGGAAAAAGGAAAAAGGGAAAAAGGAAAGUAUUAUGUUACGCCGUUCGGAUCUGCACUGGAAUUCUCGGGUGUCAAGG` has a log2 enrichment of -0.809.
`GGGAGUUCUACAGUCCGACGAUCGUCCUGUGCUACACAUCGUAUGUACCGAAUCGGGGUUUGGGGAGGGGAAAAAAAGGGGAAAGUAUUAUGUUACGCCGUUCGGAUCUGCACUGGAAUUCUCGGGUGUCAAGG` has a log2 enrichment of 0.397.
`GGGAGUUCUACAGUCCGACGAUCACCAUGCAGGUGGGCAUCUUUGGGCAGUGGGGCAAGGGGGGGAUAGGGAGGGGGGUAACACUUUGGGAACAGGUGGUCCCAGGUCGUUUCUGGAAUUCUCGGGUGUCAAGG` gave a log2 enrichment of 1.22.
The log2 enrichment of `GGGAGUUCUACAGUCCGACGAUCCACAGACAACUCGCACCCACACAGACACAGAGGGAAGGGGUUGGGAUGGGGACAGGGUGCACAGCAGGGCGGGGUAGGACCCCAGCCCCUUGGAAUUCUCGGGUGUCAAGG` is reported as 1.98.
With `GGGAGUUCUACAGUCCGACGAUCGUCCUGUGCUACACAUCGUAUGUACCGAAUCGGUUUUUUUGGUUUUUUUGGAAAAAGGAAAGUAUUAUGUUACGCCGUUCGGAUCUGCACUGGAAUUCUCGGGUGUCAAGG` the log2 enrichment was -1.23.

Series 5
Target: CREBL2, bZIP domain (human)
Technique: DHFR protein complementation
Sample: yeast
Setting: single substitutions, most at no-binding floor
Baseline: wild-type JUN-FOS pair
Direction: higher = stronger binding
Starting sequence: JUN, bZIP domain (human); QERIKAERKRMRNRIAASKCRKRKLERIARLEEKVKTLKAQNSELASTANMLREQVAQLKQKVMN; partner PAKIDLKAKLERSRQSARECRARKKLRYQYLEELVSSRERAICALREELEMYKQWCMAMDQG
With `V35R` the binding fitness was -1.45 natural log.
For `K36P`, the binding fitness was -1.53 natural log.
`N42I` has a binding fitness of -1.33 natural log.
For `E54D`, the binding fitness was -1.46 natural log.
For `L31V`, the binding fitness was -1.31 natural log.
The binding fitness of `L52H` is reported as -1.43 natural log.
The binding fitness of `L38H` is reported as -1.59 natural log.
`N42C` gave a binding fitness of -1.43 natural log.
`A40Y` has a binding fitness of -1.45 natural log.
For `T48W`, the binding fitness was -1.5 natural log.
With `E54G` the binding fitness was -1.48 natural log.
`K34H` gave a binding fitness of -1.55 natural log.
With `L45A` the binding fitness was -1.48 natural log.
`E32S` has a binding fitness of -1.56 natural log.
For `K39M`, the binding fitness was -1.4 natural log.
With `T37R` the binding fitness was -1.5 natural log.
With `L45R` the binding fitness was -1.44 natural log.
The binding fitness of `K34P` is reported as -1.54 natural log.
